Experimental data from different studies.
Protocols differ between the studies behind these lines. ± gives the spread as reported.

| Structure (SMILES) | assay | system | conditions | scale | endpoint | result |
| --- | --- | --- | --- | --- | --- | --- |
| CSCOC1C(=O)C2(C)C(OCSC)CC3OCC3(OC(C)=O)C2C(OC(=O)c2ccccc2)C2(O)CC(OC(=O)C(O)C(C=C(C)C)NC(=O)OC(C)(C)C)C(C)=C1C2(C)C (stereo not shown) | – | male Sprague-Dawley rat, plasma | intravenous, 1 mg/kg | – | Cmax | 66 ng/mL |
| CC(=O)N[C@@H](CC(N)=O)C(=O)NCC(=O)N[C@@H](CCCNC(=N)N)C(=O)N[C@@H](C)C(N)=O | 1H NMR | sodium phosphate buffer 50 mM | pH 7.4, 28 °C | – | half-life of Asn form | 87.2 h |
| CC[N+]1(Cc2ccc3ccc(O)c(C#N)c3n2)CCCC1CNC(=O)c1cc(S(N)(=O)=O)ccc1OC (stereo not shown) | – | KMOPS buffer | pH 7.2, excitation at 740 nm | – | two-photon uncaging action cross-section | 0.26 GM |
| CC(C)(Sc1ccncc1-c1ccc(C#N)c2ccccc12)C(=O)OC1OC(C(=O)O)C(O)C(O)C1O (stereo not shown) | – | plasma | oral, 15 mg, moderate renal impairment | relative to: impaired over normal renal function | AUC(0-inf) ratio | 313% |
| NC(=S)N/N=C/c1ccccn1 | cyclic voltammetry | DMF | Cu2+ complex | – | peak current ratio ipa/ipc | 0.21 |
| CC/C=C\C/C=C\C/C=C\C/C=C\C/C=C\CCCCOC(CC)C(=O)O (stereo not shown) | [14C] label | male Wistar rat, liver | oral, 100 mg/kg, 1 day | – | radioactivity concentration | 25.5 µg equiv/g |
| O=C(O)C1OC(OC2C(COS(=O)(=O)O)OC(OC3C(C(=O)O)OC(OC4C(COS(=O)(=O)O)OC(OC5C(C(=O)O)OC(OC6C(COS(=O)(=O)O)OC(OC7C(C(=O)O)OC(OC8C(COS(=O)(=O)O)OC(OC9C(C(=O)O)OC(OC%10C(COS(=O)(=O)O)OC(OC%11C(C(=O)O)OC(Oc%12ccc([N+](=O)[O-])cc%12)C(O)C%11O)C(NS(=O)(=O)O)C%10O)C(OS(=O)(=O)O)C9O)C(NS(=O)(=O)O)C8O)C(OS(=O)(=O)O)C7O)C(NS(=O)(=O)O)C6O)C(OS(=O)(=O)O)C5O)C(NS(=O)(=O)O)C4O)C(OS(=O)(=O)O)C3O)C(NS(=O)(=O)O)C2OS(=O)(=O)O)C(O)C(O)C1OC1OC(COS(=O)(=O)O)C(O)C(O)C1NS(=O)(=O)O (stereo not shown) | – | rat, liver | intravenous, 3600 µg/kg per day, 7 days, day 8 | – | organ-to-body weight ratio | 3.04 ± 0.11 |
| CC(C)(Sc1cc[n+]([O-])cc1-c1ccc(C#N)c2ccccc12)C(=O)OC1OC(C(=O)O)C(O)C(O)C1O (stereo not shown) | – | plasma | oral, 15 mg, moderate renal impairment | relative to: impaired over normal renal function | AUC(0-inf) ratio | 241% |
| NC(=O)c1ccc(C(=O)NOCc2ccc(Sc3cccc(Cl)c3)c(C(F)(F)F)c2)cc1 | – | male ICR mouse, plasma | intravenous, 10 mg/kg | – | AUC(0-inf) | 14700 ng·h/mL |
| O=c1c(-c2ccccc2)c[nH]n1-c1ccccn1 | HPLC | – | pH 7.5 | – | chromatographic logD | 2.7 |
| NCCCn1c2ccc([N+](=O)[O-])cc2c(=O)n1Cc1ccccc1 | resazurin | peritoneal macrophages, BALB/c mice | 48 h, 10% FBS | – | CC50 | 117 ± 5.6 µM |
| N#Cc1cc(C(=O)OCC[18F])c(C(F)(F)F)nc1N1CCN(C(=O)Cc2ccccc2)CC1 | dynamic PET | human, epileptic focus | intravenous | – | peak SUV | 2.5 ± 1.58 |
| CCCC[C@H](NC(=O)CNC(=O)CNC(=O)CN1CCN(CC(=O)O)CCN(CC(=O)O)CCN(CC(=O)O)CC1)C(=O)N[C@H]1CC(=O)NCCCC[C@@H](C(N)=O)NC(=O)[C@H](Cc2c[nH]c3ccccc23)NC(=O)[C@H](CCCNC(=N)N)NC(=O)[C@@H](Cc2ccccc2)NC(=O)[C@H](Cc2c[nH]cn2)NC1=O [copper-64 labelled] | – | C57 mouse B16/F1 melanoma, kidneys | 24 h | – | tissue uptake | 5.39 ± 0.42 %ID/g |
| CN(Cc1ccc(F)cc1)Cc1cc(=O)oc2cc(O)ccc12 | – | human serum | 0.5 mM, 15 min | – | remaining intact compound | > 99% |
| CNC(=O)c1ccc(N2CCN(Cc3ccc4nc(C)c(=O)[nH]c4c3F)CC2)c([18F])n1 | – | human plasma | 90 min | – | remaining intact tracer | > 95% |
| C=C(c1cc(F)c(C(=O)O)c(F)c1)c1cc2c(cc1C)C(C)(C)CCC2(C)C | – | Sprague-Dawley rat, male | oral, 100 mg/kg, 2 h, sesame oil vehicle | – | blood cholesterol | 78 ± 6.2 mg/dL |

| Structure (SMILES) | assay | system | conditions | scale | endpoint | result |
| --- | --- | --- | --- | --- | --- | --- |
| N=C(N)NCCC[C@@H]1NC(=O)[C@H](Cc2c[nH]c3ccccc23)NC(=O)[C@@H](CC2CCCCC2)NC(=O)[C@@H]2CCCN2C(=O)[C@@H](NC(=O)CCc2ccccc2)CCCNC1=O | – | C57BL/6J mice, spinal cord | oral, 1 mg/kg | – | elimination half-life | 46 min |
| CC(=O)N[C@H](CSSC[C@H](N)C(=O)O)C(=O)N[C@H](C)C(=O)N[C@H](CCCNC(=N)N)C(=O)N[C@H](CCCNC(=N)N)C(=O)N[C@H](CCCNC(=N)N)C(=O)N[C@H](C)C(=O)N[C@H](CCCNC(=N)N)C(N)=O | – | male human, plasma | intravenous, 10 mg, single dose, healthy volunteers | – | clearance | 130 mL/min |
| COc1cc(NC(C)=O)c2c(c1O)-c1c(OC)c(OC)cc3c1C(C2)N(C)CC3 (stereo not shown) | – | rat brain homogenate | 100 µg/mL, 4 h, room temperature, short-term storage | – | remaining compound | 93.4 ± 2.7% |
| Cc1cc2c(c(=O)o1)C=C1CCC(C(C)CNCc3ccc(O)cc3)CC1O2 (stereo not shown) | western blot, refers to: Triton X-100-soluble Aβ monomer | 5xFAD mice, brain | ip, 25 mg/kg daily, six weeks | – | Aβ monomer level | decreased |
| CC[C@H](C)[C@@H]1NC(=O)[C@H](Cc2ccccc2)NC(=O)[C@@H](NC(=O)[C@H](CCCNC(=N)N)NC(=O)[C@H](Cc2ccccc2)NC(=O)[C@H](Cc2ccccc2)NC(=O)[C@H](CCCCN)NC(=O)[C@H](CO)NC(=O)[C@H](CC(C)C)NC(=O)[C@H](CCCNC(=N)N)NC(=O)[C@H](CCSC)NC(=O)[C@H](C)N)CCCCNC(=O)NCCC[C@@H](C(=O)N[C@@H](CCCNC(=N)N)C(=O)N[C@@H](CCCCN)C(=O)N[C@@H](CCCCN)C(=O)O)NC(=O)[C@H](CC(C)C)NC1=O | circular dichroism | 20% TFE in PBS | 200 µM, pH 7.4, 25 °C | – | helicity | 12.1% |
| CCOc1ccc2cc(-c3nn(CC4CCN(C)CC4)c4ncnc(N)c34)ccc2n1 | – | piglets, Landrace x Large White, plasma | oral, 10 mg/kg twice daily, 2 h after dose 9, 7 dpi | – | plasma concentration | 10.2 µM |
| O=C(O)[C@@H]1C[C@@H](O)CN1C(=O)[C@@H]1CCCN1 | potentiometric titration | – | 25 °C, MAH-1 complex, added: Fe(III) | – | log beta | 9.21 |
| CC(C)[C@H](NC(=O)CNC(=O)[C@H](CCC(N)=O)NC(=O)[C@H](C)N)C(=O)O | – | human, plasma | intravenous bolus, 1 mg/kg single, 2 min infusion, geometric mean | – | AUC(0-last) | 2 ng·h/mL |
| NS(=O)(=O)NCC(F)(F)c1ccccc1F | – | mouse, plasma | 5 mg/kg | – | oral bioavailability | ~100% |
| CCCC(CCC)NC(=O)c1ccc(O)c(O)c1 | – | male Sprague-Dawley rat, plasma | oral, 200 mg/kg of parent drug | – | Tmax | 30 min |
| CC(=O)N[C@H](CCNC(=O)c1cc(NC(=O)c2cc(NC(=O)c3cc(NC(=O)c4nccn4C)cn3C)cn2C)cn1C)C(=O)Nc1cn(C)c(C(=O)Nc2cc(C(=O)Nc3cc(C(=O)Nc4cc(C(=O)NCCCN(C)CCCN[14C](=O)c5cccc([14C](=O)O)c5)n(C)c4)n(C)c3)n(C)c2)n1 | – | BALB/c male mice, lung | intraperitoneal, 15 nmol per animal, 24 h | – | tissue concentration | ~0.1 mg/kg |
| CC[C@@H](C)[C@@H](NC(=O)[C@@H](C)NC(=O)[C@@H](CCCCN)NC(=O)[C@@H](CC(C)C)NC(=O)[C@@H](C)NC(=O)[C@H](NC(=O)[C@@H](Cc1c[nH]cn1)NC(=O)[C@@H](CC(C)C)NC(=O)[C@H](NC(=O)[C@H](NC(=O)[C@@H](CCCCN)NC(=O)[C@H](NC(=O)[C@@H](C)NC(=O)[C@@H](CO)NC(=O)[C@@H](CCCCN)NC(=O)[C@@H](Cc1ccccc1)NC(=O)[C@H](NC(=O)[C@@H](CCCCN)NC(=O)[C@@H](CC(C)C)NC(=O)[C@@H](Cc1ccccc1)NC(=O)[C@@H](CO)NC(=O)[C@@H](CCCCN)NC(=O)[C@@H](Cc1c[nH]c2ccccc12)NC(=O)[C@@H](CCCCN)NC(C)=O)[C@H](C)O)C(C)C)[C@H](C)O)C(C)C)[C@H](C)O)C(=O)N[C@H](CO)C(=O)N[C@H](CO)C(N)=O | RP-HPLC temperature profiling | – | pH 2, 5-80 °C, unit not given | relative to: control peptide | self-association parameter | 7.14 |
| [11CH3]c1ccc2nc(C3CCC3)n(-c3ccc4[nH]ncc4c3)c2n1 | – | standard human adult, thymus | – | – | absorbed radiation dose | 2.6 µSv/MBq |
| CC(C)c1cnc(-c2cc(Cl)ccc2F)cc1Nc1ccncc1C(=O)NC(CO)CO | refers to: hepatic haemorrhage | human patients | oral, dose not given, grade 4 | – | patients with related SAE | 0% |
| O=C(O[C@@H]1Cc2c(O)cc(O)cc2O[C@@H]1c1cc(O)c(O)c(O)c1)c1cc(O)c(O)c(O)c1 | sulfation, substrate | human small intestinal cytosol | 10 min, pH 7.4 | – | Km | 0.82 ± 0.17 µM |
